Results pooled from the literature.
Parts stem from different laboratories: compare values within a part only. Positions count from the first letter of the parent shown.

Block 1
Target: Histone acetyltransferase KAT6A, winged helix 2, GST fusion (KAT6A, Homo sapiens, UniProt Q92794, residues 85-181)
Method: protein binding microarray
Molecule type: double-stranded DNA, one strand shown
Sample: in vitro
Tested at: not given
Setting: 8-mer, flanks averaged, mean of 2 arrays, mostly near background
Reference: not given
Direction: higher = stronger binding
Residues (chain): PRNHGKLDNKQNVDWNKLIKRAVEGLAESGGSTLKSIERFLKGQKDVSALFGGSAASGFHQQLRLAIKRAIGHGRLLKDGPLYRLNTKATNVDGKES
| Oligonucleotide | E-score |
| --- | --- |
| TCGGTCCA | -0.061 |
| ACATTTCT | 0.0891 |
| GTCACTGA | 0.00524 |
| ACTAACGC | 0.00596 |
| GACGGTCC | 0.102 |
| ATGCTAAC | 0.176 |
| ACCTCGAT | 0.127 |
| CTTATAAA | 0.0261 |
| ACAGGGTG | -0.104 |
| ACCAATGG | -0.0227 |
| GAACTCCC | 0.114 |
| CACGGTCG | -0.00384 |
| AAGAATTC | 0.0208 |
| AAGAACTT | 0.115 |
| ACTGACAA | -0.0102 |
| GACAGAAC | -0.0384 |
| ATTGTTCA | 0.0976 |
| CGGCAAAG | -0.00738 |
| CACGTGTA | -0.192 |
| CCGCGTTA | 0.114 |
| CATGCAGC | 0.0336 |
| CTTTTTTA | -0.0575 |
| TCGCGAAA | -0.0315 |
| ATGCAAGG | -0.164 |

Block 2
Target: RNA binding protein fox-1 homolog 2, RRM domain, GST-SBP tag (RBFOX2, Homo sapiens, UniProt O43251-10, residues 100-194)
Method: RNA Bind-n-Seq
Molecule type: RNA
Sample: in vitro
Tested at: 365 nM
Setting: natural RNA segment, single round, ends assumed
Reference: no-protein control
Direction: higher = stronger binding
Constant ends, left off below: GGGAGUUCUACAGUCCGACGAUC … UGGAAUUCUCGGGUGCCAA
Residues (chain): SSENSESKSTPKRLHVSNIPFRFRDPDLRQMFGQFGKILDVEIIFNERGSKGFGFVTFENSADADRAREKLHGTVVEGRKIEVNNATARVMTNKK
| Oligonucleotide | RBNS enrichment (R) |
| --- | --- |
| ACCUGUGAGAUUCUUACACAGGGGUUGGCUUCUCUAUGUUAGCCAGGGGUGCUGUAAGAACUCAGGUUAGUAGCAUACUUGAGUAAUCAGGGUCAAAGUGUCUCACCACA | 0.356 |
| CCCACCGUUGAGGCUAUCUGAAGUGUAUUGUAUGAAGGAAGUAUCAAGAACAAAUCAUUGGCCCGUUAUAGCAAAUAGUUGCUUAAGUAGCAGUUGUCAUAGACUAAUCA | 0.704 |
| UGGAUCUGGGCGAAGUGUCACUUUUUAGUGCCUAAAGUCCUAUUGUUUCUCUGUGCCCUAAGAGCACAUUGUUUAUUAGCCAGGGUGGAGCGUUUUCGACCUUAUUAAAC | 0.271 |
| AGACUAACUUCCAGAAUUAUACUUUAACCCCUCCCAGAUAUGGUCCGCCUUUGGCAUUGUGUGUACAUCUGCAGUUUUGCAUGGUGGGUUGUUAAUAUUUCAAAUGUGUG | 2.84 |
| GUAGUCCCCAGUUAUUAUGAAACCACCAAUAACCCACUGACCACAGUGAGAACCACUGAUUUUUUCCACUGACCUACUGAAUAUCUAGCAUCCUUAGAUUGGCUCAACUG | 1.06 |
| GAGGGACAUGCCUACUAGGAGUUUUUAAUGAUGUGGUAUUUAAAGUAUUGUCUCUUAGUUAAGUAUGAUUUAUUAACCCAGUGGAGCACUGUCUGCUUUUAAAUUGUCAC | 0.648 |
| CUCAGGAAAGCUGUUUUUACACUGAACAGCCAGCCUUGCUCUGUAGCAGGUGUGCUCGAGGACUGUGGACGUUGACUUCCCUUGGAUCCUUACAUGUAAACUUGCGUGUU | 0.221 |
| UCAGUCUGCUGUGCCUCCAGACUGCAGAGCUCUCAGAACCCAGAACAGAGACGAAAAGGCUACCUCUCCUACCCAAGUUAAGUGUUCAAAGGGGAUGUGAGGGCCUCCAC | 0.406 |
| UGUGAUUUUAGUUUUCAUUUGUGUUUAUGUCUGUGCUGCAGACGGAUGGGUGGGGUGCGCUUCUUUAUACCAGGAGCACGUGGCUCUUUCUGACCUUUGGCCUGUUCUAG | 0.474 |
| UCUGCAAGAUUUUGUUCUUUGAAUUUCUUGAUAUUGUAAUUGAUUAUUGAUAACUGUCAUCAUGAAAUUAUCUCUCAAUAAUAAGAUAAAUAAACUAGCAUAUGAAUCAU | 0.846 |
| AAUCUUCAAAGGUACUUAUUUCCAAAUAUGGAGGGAAUGAAUCUGAAGAGGGAACAAUGGCGUUUUUCGAACUUAUUUCUCUCUAAUCCAGCCUGGAGGAUUUUUAGCCG | 0.316 |
| UCCCCCAGAAAUCACUCUCCUGUUUACUAUUCCAGAGCUCUAGUUGUAGGCAGCGUGUGGCGUCUCAGAGGCCAGAGCGGCACUAGGGGGCUGAUUUUAUUACCAGGUUA | 0.676 |

Block 3
Target: ATF1, bZIP domain (human)
Method: DHFR protein complementation
Sample: yeast
Setting: single substitutions, most at no-binding floor
Reference: wild-type JUN-FOS pair
Direction: higher = stronger binding
Starting sequence: JUN, bZIP domain (human); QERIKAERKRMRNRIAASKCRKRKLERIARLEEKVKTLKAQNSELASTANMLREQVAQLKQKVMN; partner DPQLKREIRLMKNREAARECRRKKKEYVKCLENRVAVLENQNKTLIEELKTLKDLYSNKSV
| Change | binding fitness [natural log] |
| --- | --- |
| K36H | -1.31 |
| T48H | -1.54 |
| A40V | -1.47 |
| V56D | -1.49 |
| Q41G | -1.52 |
| N42C | -1.57 |
| A49Q | -1.48 |
| E32S | -1.5 |
| E33F | -1.54 |
| E32C | -1.45 |
| E32L | -1.53 |
| L52S | -1.52 |
| T37H | -1.47 |
| A40H | -1.5 |

Block 4
Target: ABI1, truncated, D143A, DHFR fusion (Arabidopsis thaliana)
Method: DHFR PCA, deep sequencing
Sample: yeast
Setting: methotrexate growth selection, single substitutions
Added: (+)-ABA 17 µM
Reference: wild-type fitted maximum
Direction: higher = stronger binding
Starting sequence: PYL1, truncated, DHFR fusion (Arabidopsis thaliana); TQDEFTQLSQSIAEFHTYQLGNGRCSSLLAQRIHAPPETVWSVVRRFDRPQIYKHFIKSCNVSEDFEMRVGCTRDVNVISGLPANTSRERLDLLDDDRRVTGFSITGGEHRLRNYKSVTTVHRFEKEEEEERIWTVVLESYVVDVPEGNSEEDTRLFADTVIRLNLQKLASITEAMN
| Change | relative binding score [%] |
| --- | --- |
| K54W | -1.06 |
| V100P | -18.6 |
| V161R | -3.58 |
| I172F | 64.3 |
| L91H | -19.9 |
| N77C | 89 |
| N114I | 2.13 |
| T119Q | 74.8 |
| T154Y | -12.2 |
| S63K | 85.4 |
| V44T | 18.6 |
| R113D | 60.5 |
| N61R | 88.4 |
| M176S | 79.2 |
| P83I | -5.25 |
| Y53D | 1.37 |
| E131H | 86.8 |
| V78P | 10.8 |
| E89W | -4.83 |
| E131L | 86.6 |
| L138A | 4.6 |
| T120H | 3.08 |
| N149E | 13 |
| R49A | 81.9 |
| T39E | 73.6 |

Block 5
Target: CCNE2, cyclin fold, Cln2 fusion (human)
Method: yeast growth competition, sequencing
Sample: yeast
Setting: strong parent motif
Reference: not given
Direction: higher = stronger binding
Starting sequence: BRCA2 docking peptide (human); PSIKRNLLNEFDR
| Change | normalised enrichment score |
| --- | --- |
| L7A | 0.177 |
| L7P | 0.0681 |
| L7Y | 0.154 |
| N6R | 1.29 |
| D12C | 2.02 |
| E10N | 0.792 |
| L8W | 0.213 |
| P1S | 1.42 |
| L7S | -0.975 |
| R5V | 0.825 |
| N6D | 0.431 |
| R5C | -0.113 |
| L7I | 0.739 |
| I3P | 0.664 |
| P1N | 2.48 |
| N6I | 0.499 |
| N9C | 1.36 |
| R13M | 1.2 |
| P1I | 0.857 |

Other studies, line by line
| Molecule | target | test | system | setting | how to read | quantity | value |
| --- | --- | --- | --- | --- | --- | --- | --- |
| PhoQ, residues 284 288 289 292 302 303 TTSMTC | PhoP, residues 12 14 15 18 19 TPWLV (Escherichia coli, UniProt P23836) | Sort-seq, refers to: YFP reporter | E. coli | PhoQ-PhoP variant library, added: 10 µM Mg2+ | reference: high Mg2+ state, higher = stronger signaling | fold induction | 12.3 |

For quick reference, copied from above (block 3):
| Change | binding fitness [natural log] |
| --- | --- |
| Q41G | -1.52 |
| N42C | -1.57 |
| A49Q | -1.48 |
| E32S | -1.5 |
| E33F | -1.54 |
| E32C | -1.45 |
| E32L | -1.53 |
| L52S | -1.52 |
| T37H | -1.47 |
| A40H | -1.5 |
